Published values from different studies.
Compare with care: the assays were run in different laboratories. Numbers after ± are the reported error.

Compound	organism	test	system	setting	scale	measurement	result
CCCC(=O)NCC(=O)N[C@@H](CC(C)C)C(=O)N[C@@H](CC(C)C)C(=O)N[C@@H](CCCCN)C(=O)N[C@@H](CCCNC(=N)N)C(=O)N[C@H](C(=O)N[C@@H](CCCCN)C(=O)N[C@H](C(=O)N[C@@H](CC(C)C)C(=O)N[C@@H](CC(C)C)C(=O)NCCCC[C@H](NC(=O)[C@H](CCCCNC(=O)[C@H](CC(C)C)NC(=O)[C@H](CC(C)C)NC(=O)[C@@H](NC(=O)[C@H](CCCCN)NC(=O)[C@@H](NC(=O)[C@H](CCCNC(=N)N)NC(=O)[C@H](CCCCN)NC(=O)[C@H](CC(C)C)NC(=O)[C@H](CC(C)C)NC(=O)CNC(=O)CCC)[C@@H](C)CC)[C@@H](C)O)NC(=O)[C@H](CC(C)C)NC(=O)[C@H](CC(C)C)NC(=O)[C@@H](NC(=O)[C@H](CCCCN)NC(=O)[C@@H](NC(=O)[C@H](CCCNC(=N)N)NC(=O)[C@H](CCCCN)NC(=O)[C@H](CC(C)C)NC(=O)[C@H](CC(C)C)NC(=O)CNC(=O)CCC)[C@@H](C)CC)[C@@H](C)O)C(N)=O)[C@@H](C)O)[C@@H](C)CC	Klebsiella pneumoniae	checkerboard	ATCC 700603	with: rifampicin		FIC index	0.375
N=C(N)N1CC23C4C5CC5C5C4C4C2C2CC2C4C53C1 (centres unmarked)	Influenza A virus	viral replication	MDCK, H1N1 A/PR/8/34			EC50	> 100 µM
CC[C@H](C)[C@H](NC(=O)[C@H](C)NC(=O)[C@H](C)NC(=O)[C@H](Cc1ccccc1)NC(=O)[C@H](C)NC(=O)CNC(=O)[C@H](Cc1ccccc1)NC(=O)[C@@H](N)Cc1ccccc1)C(=O)N[C@@H](C)C(=O)N[C@@H](CO)C(=O)N[C@@H](CC(C)C)C(=O)N[C@H](C(=O)N[C@H](C(=O)N1CCC[C@H]1C(=O)N[C@@H](CCCCN)C(=O)N[C@@H](CC(C)C)C(=O)N[C@H](C(=O)N[C@@H](CCC(=O)O)C(=O)N[C@@H](CCCCN)C(=O)N[C@H](C(=O)N[C@@H](CCCCN)C(=O)N[C@@H](CCC(N)=O)C(=O)N[C@@H](C)C(=O)N[C@@H](CCCNC(=N)N)C(N)=O)[C@@H](C)CC)[C@@H](C)CC)[C@@H](C)CC)C(C)C	Aspergillus flavus	ATP luminescence	ATCC 9170	48 h, 37 °C		MIC	> 50 µM
COc1ccc2nc(C)cc(OCC(=O)Nc3ccccc3OC)c2c1	Haemophilus influenzae	microbial growth, broth dilution	H128			MIC	64 µM
COC(=O)[C@]1(C)CCC[C@]2(C)[C@H]3C[C@H]4C(C(C)C)=C[C@]3(CC[C@H]21)[C@H]1[C@@H]4[C@@H](OCC#CCN2CCOCC2)CC[C@@H]1O	Influenza A virus		MDCK, A/Puerto Rico/8/34 (H1N1)		relative to: CC50 over IC50	selectivity index	1.77
CC[C@H](C)[C@H](NC(=O)[C@H](CCCNC(=N)N)NC(=O)[C@H](CCCCN)NC(=O)[C@H](CC(C)C)NC(=O)[C@H](CC(C)C)NC(=O)CN)C(=O)N[C@@H](CCCCN)C(=O)N[C@H](C(=O)N[C@@H](CC(C)C)C(=O)N[C@@H](CC(C)C)C(=O)NCCCC[C@H](NC(=O)[C@H](CC(C)C)NC(=O)[C@H](CC(C)C)NC(=O)[C@@H](NC(=O)[C@H](CCCCN)NC(=O)[C@@H](NC(=O)[C@H](CCCNC(=N)N)NC(=O)[C@H](CCCCN)NC(=O)[C@H](CC(C)C)NC(=O)[C@H](CC(C)C)NC(=O)CN)[C@@H](C)CC)[C@@H](C)O)C(N)=O)[C@@H](C)O	Klebsiella pneumoniae	checkerboard	ATCC 700603	with: gentamicin		FIC index	0.625
CCc1ccc([C@@H]2C[C@H](C(F)(F)F)n3ncc(C(=O)NCc4ccc(OC)cc4)c3N2)cc1	Haemophilus influenzae	broth microdilution	H128 AcrA-			MIC	16 µM
CC[C@H](C)[C@@H]1NC(=O)[C@H](CC(C)C)NC(=O)[C@@H](NC(=O)[C@H](CO)NC(=O)[C@H](CCCNC(=N)N)NC(=O)[C@@H](N)CO)CSSC[C@@H](C(=O)N[C@@H](CCC(N)=O)C(=O)N[C@@H](CCCNC(=N)N)C(=O)N[C@@H](CC(C)C)C(=O)N[C@@H](Cc2ccccc2)C(N)=O)NC(=O)[C@H](C(C)C)NC(=O)[C@H]([C@@H](C)CC)NC(=O)[C@H](CC(C)C)NC(=O)[C@@H](NC(=O)[C@H](CO)NC(=O)[C@H](CCCNC(=N)N)NC(=O)[C@@H](N)CO)CSSC[C@@H](C(=O)N[C@@H](CCC(N)=O)C(=O)N[C@@H](CCCNC(=N)N)C(=O)N[C@@H](CC(C)C)C(=O)N[C@@H](Cc2ccccc2)C(N)=O)NC(=O)[C@H](C(C)C)NC1=O	Listeria monocytogenes	broth microdilution	ATCC BAA-679 (EGD-e)			MIC	12.5 µg/mL
CC[C@H](C)[C@H](NC(=O)[C@H](C)NC(=O)[C@@H]1CCCN1C(=O)[C@H](CC(C)C)NC(=O)[C@H](Cc1ccccc1)NC(=O)[C@H](CCCCN)NC(=O)[C@H](CCSC)NC(=O)[C@H](C)NC(=O)[C@H](CCSC)NC(=O)[C@H](CCCCN)NC(=O)[C@H](C)NC(=O)[C@@H](NC(=O)[C@@H](NC(=O)CNC(=O)[C@H](Cc1ccccc1)NC(=O)[C@@H](N)Cc1ccccc1)C(C)C)[C@@H](C)CC)C(=O)N[C@@H](Cc1ccccc1)C(=O)N[C@@H](CCCCN)C(=O)N[C@@H](CCC(N)=O)C(=O)N[C@H](C(=O)N[C@@H](CCC(N)=O)C(=O)N[C@@H](CCCCN)C(=O)N[C@@H](CCCCN)C(=O)N[C@@H](CCCNC(=N)N)C(=O)N[C@@H](CCCCN)C(N)=O)[C@@H](C)CC	Aspergillus flavus	ATP luminescence	ATCC 9170	48 h, 37 °C		MIC	> 50 µM
CC(=N)NC12C3CCC4C3C3C(CCC31)C42	Influenza A virus	viral replication	MDCK, H3N2 A/HK/7/87			EC50	> 100 µM
CC[C@H](C)[C@H](NC(=O)[C@H](C)NC(=O)[C@H](CCC(=O)O)NC(=O)[C@H](CCC(=O)O)NC(=O)[C@H](CC(C)C)NC(=O)[C@H](CCCCN)NC(=O)[C@H](CCCCN)NC(=O)[C@H](CCSC)NC(=O)[C@H](CCC(=O)O)NC(=O)[C@H](Cc1ccc(O)cc1)NC(=O)[C@H](CCC(=O)O)NC(=O)[C@H](CC(C)C)NC(=O)[C@H](CC(=O)O)NC(=O)[C@H](CC(C)C)NC(=O)[C@H](Cc1ccccc1)NC(=O)[C@@H](NC(=O)[C@@H](NC(=O)[C@@H](N)CC(N)=O)C(C)C)[C@@H](C)O)C(=O)N[C@@H](CCCCN)C(=O)N[C@@H](CCCCN)C(=O)N[C@@H](CC(C)C)C(=O)N[C@@H](CCC(=O)O)C(=O)N[C@@H](CCC(=O)O)C(=O)N[C@@H](CO)C(=O)N[C@@H](Cc1ccc(O)cc1)C(=O)N[C@H](C(=O)N[C@@H](CC(=O)O)C(=O)N[C@@H](CC(C)C)C(=O)N[C@@H](CCCCN)C(=O)N[C@@H](CCC(=O)O)C(=O)N[C@@H](CC(C)C)C(=O)NCC(=O)N[C@H](C(=O)N[C@@H](Cc1ccc(O)cc1)C(=O)N[C@@H](CCC(=O)O)C(=O)N[C@@H](Cc1ccc(O)cc1)C(N)=O)[C@@H](C)O)[C@@H](C)CC	HCoV-NL63	viral entry	pseudotyped virus			IC50	3.7 µM
O=[N+]([O-])NC1=NCCN1Cc1ccc(Cl)nc1	Myzus persicae	leaf-dip bioassay		72 h, adults	relative to: LC50 over susceptible strain	resistance ratio	20
C1CC2C3C4C5CCC4C24CNCC54C13	Influenza A virus	viral replication	MDCK, A/FM/1/47 (H1N1)			EC50	12 ± 3 µM
Cc1ccc2nc(C)c(C(=O)NCc3cccs3)n2c1	Haemophilus influenzae	microbial growth, broth dilution	H128			MIC	> 64 µM
CN1CC23C4CCC5C4C4C2CCC4C53C1	Influenza A virus	viral replication	MDCK, H3N2 A/HK/7/87			EC50	> 100 µM
O=C1c2c(O)cc(O)cc2O[C@H](c2ccc(O)c(O)c2)[C@H]1O	human coronavirus 229E	viral replication	Huh-7			minimum effective concentration	2.5 µM
CNc1nc(SC)nc2ccccc12	Haemophilus influenzae	broth microdilution	H128 AcrA-			MIC	> 64 µM
NCC12C3CCC4C3C3C(CCC31)C42	Influenza A virus	viral replication	MDCK, H1N1 A/PR/8/34			EC50	9 µM
CC[C@H](C)[C@H](NC(=O)[C@H](CCCNC(=N)N)NC(=O)[C@H](CCCCN)NC(=O)[C@H](CC(C)C)NC(=O)[C@H](CC(C)C)NC(=O)CN)C(=O)N[C@@H](CCCCN)C(=O)N[C@H](C(=O)N[C@@H](CC(C)C)C(=O)N[C@@H](CC(C)C)C(=O)NCCCC[C@H](NC(=O)[C@H](CC(C)C)NC(=O)[C@H](CC(C)C)NC(=O)[C@@H](NC(=O)[C@H](CCCCN)NC(=O)[C@@H](NC(=O)[C@H](CCCNC(=N)N)NC(=O)[C@H](CCCCN)NC(=O)[C@H](CC(C)C)NC(=O)[C@H](CC(C)C)NC(=O)CN)[C@@H](C)CC)[C@@H](C)O)C(=O)NCCCC[C@H](NC(=O)[C@H](CCCCNC(=O)[C@H](CC(C)C)NC(=O)[C@H](CC(C)C)NC(=O)[C@@H](NC(=O)[C@H](CCCCN)NC(=O)[C@@H](NC(=O)[C@H](CCCNC(=N)N)NC(=O)[C@H](CCCCN)NC(=O)[C@H](CC(C)C)NC(=O)[C@H](CC(C)C)NC(=O)CN)[C@@H](C)CC)[C@@H](C)O)NC(=O)[C@H](CC(C)C)NC(=O)[C@H](CC(C)C)NC(=O)[C@@H](NC(=O)[C@H](CCCCN)NC(=O)[C@@H](NC(=O)[C@H](CCCNC(=N)N)NC(=O)[C@H](CCCCN)NC(=O)[C@H](CC(C)C)NC(=O)[C@H](CC(C)C)NC(=O)CN)[C@@H](C)CC)[C@@H](C)O)C(N)=O)[C@@H](C)O	Klebsiella pneumoniae	checkerboard	ATCC 700603	with: rifampicin		FIC index	0.25
CCC1(CC)C2CC3CC(C2)CC1(N(C)C)C3	Influenza A virus	viral replication	MDCK, A/Ned/378/05 (H1N1)			EC50	23 ± 3 µM
CONC(=O)[C@H]1[C@@H](O)[C@@]2(O)c3c(OC)cc(OC)cc3O[C@@]2(c2ccc(OC)cc2)[C@@H]1c1ccccc1	Human coronavirus 229E			concentration not given		nucleocapsid protein level	decreased
CCCCCCCCCC(=O)NCC(=O)N[C@@H](CC(C)C)C(=O)N[C@@H](CC(C)C)C(=O)N[C@@H](CCCCN)C(=O)N[C@@H](CCCNC(=N)N)C(=O)N[C@H](C(=O)N[C@@H](CCCCN)C(=O)N[C@H](C(=O)N[C@@H](CC(C)C)C(=O)N[C@@H](CC(C)C)C(N)=O)[C@@H](C)O)[C@@H](C)CC	Klebsiella pneumoniae	checkerboard	ATCC 700603	with: gentamicin		FIC index	0.75
Cc1ccc2nc(C(F)(F)F)c(C(=O)NCc3cccc(Cl)c3)n2c1	Haemophilus influenzae	broth microdilution	H128 AcrA-			MIC	64 µM
NC12C3CCC4C3C3C(CCC31)C42	Influenza A virus	viral replication	MDCK, H1N1 A/PR/8/34			EC50	10 µM
CCCC(=O)NCC(=O)N[C@@H](CC(C)C)C(=O)N[C@@H](CC(C)C)C(=O)N[C@@H](CCCCN)C(=O)N[C@@H](CCCNC(=N)N)C(=O)N[C@H](C(=O)N[C@@H](CCCCN)C(=O)N[C@H](C(=O)N[C@@H](CC(C)C)C(=O)N[C@@H](CC(C)C)C(=O)NCCCC[C@H](NC(=O)[C@H](CC(C)C)NC(=O)[C@H](CC(C)C)NC(=O)[C@@H](NC(=O)[C@H](CCCCN)NC(=O)[C@@H](NC(=O)[C@H](CCCNC(=N)N)NC(=O)[C@H](CCCCN)NC(=O)[C@H](CC(C)C)NC(=O)[C@H](CC(C)C)NC(=O)CNC(=O)CCC)[C@@H](C)CC)[C@@H](C)O)C(=O)NCCCC[C@H](NC(=O)[C@H](CCCCNC(=O)[C@H](CC(C)C)NC(=O)[C@H](CC(C)C)NC(=O)[C@@H](NC(=O)[C@H](CCCCN)NC(=O)[C@@H](NC(=O)[C@H](CCCNC(=N)N)NC(=O)[C@H](CCCCN)NC(=O)[C@H](CC(C)C)NC(=O)[C@H](CC(C)C)NC(=O)CNC(=O)CCC)[C@@H](C)CC)[C@@H](C)O)NC(=O)[C@H](CC(C)C)NC(=O)[C@H](CC(C)C)NC(=O)[C@@H](NC(=O)[C@H](CCCCN)NC(=O)[C@@H](NC(=O)[C@H](CCCNC(=N)N)NC(=O)[C@H](CCCCN)NC(=O)[C@H](CC(C)C)NC(=O)[C@H](CC(C)C)NC(=O)CNC(=O)CCC)[C@@H](C)CC)[C@@H](C)O)C(N)=O)[C@@H](C)O)[C@@H](C)CC	Klebsiella pneumoniae	checkerboard	ATCC 700603	with: gentamicin		FIC index	0.375
Cc1cccc(-c2nc(Nc3ccncn3)c3sccc3n2)n1	Haemophilus influenzae	microbial growth, broth dilution	H128			MIC	8 µM
CCN(CC)CC#CCOC(=O)[C@]1(C)CCC[C@]2(C)[C@H]3C[C@H]4C(C(C)C)=C[C@]3(CC[C@H]21)[C@@H]1C(=O)CCC(=O)[C@@H]14	Influenza A virus	viral replication	MDCK, A/Puerto Rico/8/34 (H1N1)			IC50	10.5 µM
CC(=N)N1CC23C4C=CC5C4C4C2C=CC4C53C1	Influenza A virus	viral replication	MDCK, H3N2 A/HK/7/87			EC50	> 100 µM
C=CC(=O)Nc1cccc2c1cc(C)n2-c1nc2c(c(NCc3ccccc3)n1)CCCC2	Influenza A virus		MDCK, A/WS/33 (H1N1)	0.5 µM, 24 (unit not given), infected cells		viability	0%

A few entries again:
Compound	organism	test	system	setting	scale	measurement	result
CNc1nc(SC)nc2ccccc12	Haemophilus influenzae	broth microdilution	H128 AcrA-			MIC	> 64 µM
CCCCCCCCCC(=O)NCC(=O)N[C@@H](CC(C)C)C(=O)N[C@@H](CC(C)C)C(=O)N[C@@H](CCCCN)C(=O)N[C@@H](CCCNC(=N)N)C(=O)N[C@H](C(=O)N[C@@H](CCCCN)C(=O)N[C@H](C(=O)N[C@@H](CC(C)C)C(=O)N[C@@H](CC(C)C)C(N)=O)[C@@H](C)O)[C@@H](C)CC	Klebsiella pneumoniae	checkerboard	ATCC 700603	with: gentamicin		FIC index	0.75
